# Measurements of several laboratories.
# A part holds a random share of what one study measured.

# Study 1
# Target: Protein C-ets-1 (ETS1, Homo sapiens, UniProt P14921, residues 1-441, K379A, full length assumed)
# Chain of UniProt P14921 (whole entry, unmodified, looked up): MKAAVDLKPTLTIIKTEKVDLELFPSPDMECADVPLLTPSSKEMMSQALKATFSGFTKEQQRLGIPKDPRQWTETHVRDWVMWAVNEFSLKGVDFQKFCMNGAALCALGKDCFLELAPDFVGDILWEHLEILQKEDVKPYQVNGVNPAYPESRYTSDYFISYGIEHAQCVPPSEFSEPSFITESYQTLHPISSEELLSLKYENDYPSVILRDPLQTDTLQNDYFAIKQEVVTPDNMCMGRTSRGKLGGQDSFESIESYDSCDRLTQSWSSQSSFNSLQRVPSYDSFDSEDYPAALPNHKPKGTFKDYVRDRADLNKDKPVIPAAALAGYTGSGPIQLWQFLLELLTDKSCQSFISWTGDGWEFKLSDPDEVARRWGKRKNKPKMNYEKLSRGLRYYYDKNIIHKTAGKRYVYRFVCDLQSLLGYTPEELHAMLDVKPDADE
# Technique: protein-binding microarray
# Form: double-stranded DNA, one strand shown
# Medium: in vitro
# Concentration: not given
# Notes: k-mer, scored over probes, only values ≥0.25
# Reading: higher = stronger binding
Strand,E-score
TCCGGTAA,0.451
ATGTTAAC,0.269
ATCACACC,0.263
CCGGTACG,0.367
GACGTCTA,0.276
ATATCCCG,0.275
CTACAGTA,0.286
ATGCATTA,0.257
ACCGGTAC,0.452
CCGGAGAC,0.314
CCGGTTAC,0.385
CCGGGGTC,0.297
CTCCCGCC,0.272
GTCGGTCA,0.27
CGGCGGAG,0.286

# Study 2
# Target: Protein C-ets-1, full length (ETS1, Homo sapiens, UniProt P14921, residues 1-441)
# Technique: protein-binding microarray
# Form: hairpin DNA
# Medium: in vitro
# Concentration: not given
# Notes: whole hairpin DNA, median over replicate spots
# Baseline: not given
# Reading: higher = stronger binding
Strand,median fluorescence [a.u.]
GAGGCCAGCCGGACGTTGCCTCCTGGCAACGTCCGGCTGGCCTCACACTC,2730
GAGGCCAGTCGGTAGTTGCCTCCTGGCAACTACCGACTGGCCTCACACTC,558
GAGGCCAGCCGGAAGTTGCCTCCTGGCAACTTCCGGCTGGCCTCACACTC (5mC at 10),876
GAGGCCAGCCGGAACTTGCCTCCTGGCAAGTTCCGGCTGGCCTCACACTC,3290
GAGGCCAGTCGGAAGTTGCCTCCTGGCAACTTCCGACTGGCCTCACACTC (5mC at 10),643
GAGGCCACGCGGAAGTTGCCTCCTGGCAACTTCCGCGTGGCCTCACACTC (5mC at 36),5060
GAGGCCAGTCGGACGTTGCCTCCTGGCAACGTCCGACTGGCCTCACACTC (5mC at 14),717
GAGGCCGGCCGGAAGTTGCCTCCTGGCAACTTCCGGCCGGCCTCACACTC (5mC at 38),12300
GAGGCCAGTCTGAAGTTGCCTCCTGGCAACTTCAGACTGGCCTCACACTC,508
GAGGCCAGCCGGAACGTGCCTCCTGGCACGTTCCGGCTGGCCTCACACTC (5mC at 29),925

# Study 3
# Target: RNA binding protein fox-1 homolog 2, RRM domain, GST-SBP tag (RBFOX2, Homo sapiens, UniProt O43251-10, residues 100-194)
# Technique: RNA Bind-n-Seq
# Form: RNA
# Medium: in vitro
# Concentration: 365 nM
# Notes: natural RNA segment, single round, ends assumed
# Baseline: no-protein control
# Reading: higher = stronger binding
# Shared flanks, not repeated: GGGAGUUCUACAGUCCGACGAUC … UGGAAUUCUCGGGUGCCAA
# Residues (chain): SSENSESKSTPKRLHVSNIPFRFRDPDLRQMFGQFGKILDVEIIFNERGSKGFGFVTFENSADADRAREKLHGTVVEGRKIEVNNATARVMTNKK
Strand,RBNS enrichment (R)
AUUGUAUGCAUAUAUGUGUAUAUGUUAUAAACGUGAAAUAUAUUUGACACACACAUUCACAUAUAAAUUGUUAAAAACUGAAGGCAGAAUGGAACUAAUAUAUGUAACAG,1.07
AGCCCAGGGGCAAAGGCAGUCAACUUGCAUGUGAUACAAGACAGGCCAGGCAGAGCUGGUGUGACUUGAGGUGGCGCCAGCCUCUCAGGCAUGGUGGCUGGGUUGGUGAU,24.9
AUCCUAAGAAUGAUGAACCAUUGUCCUAGCUGCCUCCCACAUCAAUGCAUGAGGCCAAGAAACUAGCCAAGCUUCCCUUUAGGGGCAUUUGAGCUCUGGGGAGAAAGGAU,17.8
CUUUCCUCUUUUUGGAGAAAAGGAACAGGGCAGUGGAAUGAAAAUUUUUUGUUUGUUUGUUUUUAAGAAACAAGAAAACAGAACUGCCUUUGCACUAAAUUAGUGACUUG,3.53
GUUCUAAAUUUAAAACAAAUAAUAAUUGGAACAAAUAAAGGUUCUUGUACCCAGAGUGAUUCUACAUGGGAAAAACAAACCAGCUUUUUUCAGAGAGUGACCGAAUAGGA,0.337
ACAAAGGGAAACAGAUACUUGAUAUGAAAGCCAUAAUGACGGUGACUUGUGUCGUGGGGGAAAACAUAAGGUCAUUUUCUCCCUCUACUCACAAUACUAAAGGGAAAAAA,0.77
AGGGGUCCAAACAGAAAAUAACCGGAGAAGACAAGGAGGUCAAAGGAUCAGGGAACUAAGCAUUAUGUGAAUUCACCAGCAAGAUGUACAGAACGCCUGUGUUUACAUUG,0.807
CCACUUUCCCCAGGAACACUCCCGUAGCUCCUUCAUCCAUUGCCAGUGGAGGGUUUUUAUUUUUAUUUUUUUAAAAGUUUAGGUGCCUUUGCGGAUGACCUCAUUUUGAU,1.87
CAGAGUUGUGUUUUUCUUUAUAAACAAAUGAUAAACUAGCUUUUUUAAAAAGUGACUGUUAGAACUUUUUUAGCUCUGAGUAGUGGUCCCUUUUUAAACUCCUGGAAACA,0.358
CUAAAUCUGGAGUUUUACAAAGAAGGAAACUGUAUCUUUAGGUUAAUCAAAGCUAUGCAUUUCAUAUAGCUUUUUCAUUUAAAACAAGACAAAGAAACAAAUUCCUAUGA,1.52
CCUUCUCCUUGGCGUGGCUUACUUCAAGGGGCAGUGGGUAACCAAGUUUGACUCGAGAAAGACGACCCUCCAGGAUUUUCAUUUGGACGAGGACAGGACCGUGAGAGUCC,0.282
UGCAGAUGCUGUGAGAGUCUGGGGAAAGAUCACAUGGGUCGAGGGUUUCUCUACUGGUCAGGAUGCUUUUCUCAUAAGGGUCGACUUUUUUCACCAGUCACAUAAACACU,0.323

# Study 4
# Target: Histone acetyltransferase KAT6A, winged helix 1, GST fusion (KAT6A, Homo sapiens, UniProt Q92794, residues 1-85)
# Technique: protein binding microarray
# Form: double-stranded DNA, one strand shown
# Medium: in vitro
# Concentration: not given
# Notes: 8-mer, flanks averaged, mean of 2 arrays, mostly near background
# Baseline: not given
# Reading: higher = stronger binding
# Target sequence (chain): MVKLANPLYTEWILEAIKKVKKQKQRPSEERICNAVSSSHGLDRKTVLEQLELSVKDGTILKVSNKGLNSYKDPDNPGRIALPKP
Strand,E-score
GCACTGGC,-0.00251
ATGACGGC,0.355
GGTCATGA,-0.132
ATAATCCA,-0.0864
AAATCTCG,-0.0775
CATCTGAG,0.0339
CAAGGCTC,-0.0546
GTCGGATA,0.115
AGAGTTTA,-0.295
CATTCCGC,0.248
AGATAATG,-0.202
AGATCAAG,-0.128
ACCCCTAC,-0.203
CCCAGGGG,-0.213
CCTAGCTA,-0.15
ATCGCATG,-0.017
CCTGCCGC,0.323

# Study 5
# Molecule: RKLHFEDEVT
# Form: peptide
# Reading: direction not given
tested on,assay,system,setting,enrichment score
human cyclin A2,competitive growth deep sequencing,"Saccharomyces cerevisiae, cyclin A2-Cln2 fusion strain",peptide tiling library,2.99
Saccharomyces cerevisiae,"binding, yeast competitive growth sequencing",cyclin B3-Cln2 fusion strain,peptide tiling library,0.233
Saccharomyces cerevisiae,"binding, yeast competitive growth sequencing","cyclin A1-Cln2 strain, peptide tiling library",,-0.0112

# Study 6
# Target: Centromere-binding protein 1, full length, N-terminal tag (CBF1, Saccharomyces cerevisiae, UniProt P17106, residues 1-351)
# Chain of UniProt P17106 (whole entry, looked up): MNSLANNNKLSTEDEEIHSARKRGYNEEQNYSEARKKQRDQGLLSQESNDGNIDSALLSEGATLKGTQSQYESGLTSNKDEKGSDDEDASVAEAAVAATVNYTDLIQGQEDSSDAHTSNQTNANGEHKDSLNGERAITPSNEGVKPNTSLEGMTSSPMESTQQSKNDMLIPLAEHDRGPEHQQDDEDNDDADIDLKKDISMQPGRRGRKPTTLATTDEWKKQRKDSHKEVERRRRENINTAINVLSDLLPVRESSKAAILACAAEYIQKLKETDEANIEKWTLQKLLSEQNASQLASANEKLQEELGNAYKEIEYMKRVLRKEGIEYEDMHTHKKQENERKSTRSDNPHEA
# Technique: protein-binding microarray
# Form: double-stranded DNA, one strand shown
# Medium: in vitro
# Concentration: 0.8 µM
# Notes: whole 60-bp probe, no competitor
# Reading: higher = stronger binding
# Shared flanks, not repeated: … GTCTTGATTCGCTTGACGCTGCTG
Strand,fluorescence intensity [a.u.]
CCTAACTACTATAGTCACATCCCATAGCTTCGTACA,526
GAAAATAGCGAGAATATGGTGTGAACAGTAGCATAG,504
GAAGGTTTCCTTCATCTCCTGTATATGGCCCTTTAG,519
GAAAAAGCGCAAGGCCGCGTGGACCACCAGGACTAG,496
GAATATGTAATGGGTCATGATAAATTCCGAGATTAG,537
CTAACGTGTGGAGGACATCAGCCCGCAGCACATTTC,482
TGTACGAAGCTATATCACGTGTGTATAGTAGTTAGG,9050
GAATTTGCTCTCGATCATCAGAGAACAGTAGAATAG,602
CTACTCTCACAAAAAGACCTCACGTATTTTATGTTC,547
CTAGATTATTTGGGTAAGCTGATGGTATTCTCCTTC,518
GAAGCAAGCAAACATGGTGTGGGGAAGGTGAGGTAG,519
GAATTAAATAACACACACGTTATCTCTAGCGGTTAG,643
GAATAAGGTAGAAATTGCATCAGATAAAAGTGATAG,554
CTAAACTATGAATTTCACACCATATCCTTATCTTTC,510

# A few entries again (study 4):
Strand,E-score
AAATCTCG,-0.0775
CATCTGAG,0.0339
CAAGGCTC,-0.0546
GTCGGATA,0.115
AGAGTTTA,-0.295
CATTCCGC,0.248
AGATAATG,-0.202
AGATCAAG,-0.128
ACCCCTAC,-0.203
CCCAGGGG,-0.213
CCTAGCTA,-0.15
